Measured values pooled from the literature.
Every numbered part comes from another study and shows a few of its results, in no order. Values joined by “and” are separate records of one study, mostly repeats; a detail may differ. Substitutions count along the parent as printed.

Series 1 — target: CCNE1, cyclin fold, Cln2 fusion (human); technique: yeast growth competition, sequencing; sample: yeast; notes: strong parent motif; reference: not given; direction: higher = stronger binding; starting sequence: viral docking peptide; KGVKRKLFAEDSS
Substitution | normalised enrichment score
KGVKPKLFAEDSS [R5P] | 0.215
KGVTRKLFAEDSS [K4T] | 5.47
KGSKRKLFAEDSS [V3S] | 2.25
KGVKRKLFAEPSS [D11P] | 7.34
KGVKRKLFAMDSS [E10M] | 6.94
KGVKRKPFAEDSS [L7P] | 0.075
KGVKRKLFAEDGS [S12G] | 6.99
KAVKRKLFAEDSS [G2A] | 7.13

Series 2 — target: tungstate, free oxyanion; technique: microfluidic competitive inhibition; sample: in vitro, cell-free expressed; concentration: not given; direction: lower = stronger binding
Notes: derived from inhibition constants, unchanged parent 2230 nM
Starting sequence: PafA, mature enzyme, eGFP fusion (Elizabethkingia meningoseptica, UniProt Q9KJX5); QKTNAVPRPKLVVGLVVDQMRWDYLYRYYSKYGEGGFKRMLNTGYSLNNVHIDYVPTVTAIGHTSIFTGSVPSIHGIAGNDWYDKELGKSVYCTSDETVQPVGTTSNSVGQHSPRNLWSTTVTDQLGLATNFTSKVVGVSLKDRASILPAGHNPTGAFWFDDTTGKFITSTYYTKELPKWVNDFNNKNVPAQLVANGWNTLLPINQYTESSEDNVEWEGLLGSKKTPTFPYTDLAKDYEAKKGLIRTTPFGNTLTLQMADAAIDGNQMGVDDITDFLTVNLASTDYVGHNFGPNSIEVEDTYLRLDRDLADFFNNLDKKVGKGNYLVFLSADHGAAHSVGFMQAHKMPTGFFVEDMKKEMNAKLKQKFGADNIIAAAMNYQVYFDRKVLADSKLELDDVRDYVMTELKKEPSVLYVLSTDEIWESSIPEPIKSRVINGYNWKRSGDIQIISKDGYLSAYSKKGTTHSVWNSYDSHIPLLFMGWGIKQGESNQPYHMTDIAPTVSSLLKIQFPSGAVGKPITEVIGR
Substitution | oxyanion analog dissociation constant
W469G | 372 nM
Y92G | 31.8 µM
P477G | 3.76 µM
H63V | 15.4 µM
T120G | 1.98 µM
S467V | 2.99 µM
N470V | 2.05 µM
D398V | 2.45 µM

Series 3 — effect on: binding; technique: phage display NGS; molecule type: peptide; concentration: concentration not given; reference: input library
Target: UDP-N-acetylglucosamine--peptide N-acetylglucosaminyltransferase 110 kDa subunit (OGT, Homo sapiens, UniProt O15294)
Chain of UniProt O15294 (whole entry, looked up): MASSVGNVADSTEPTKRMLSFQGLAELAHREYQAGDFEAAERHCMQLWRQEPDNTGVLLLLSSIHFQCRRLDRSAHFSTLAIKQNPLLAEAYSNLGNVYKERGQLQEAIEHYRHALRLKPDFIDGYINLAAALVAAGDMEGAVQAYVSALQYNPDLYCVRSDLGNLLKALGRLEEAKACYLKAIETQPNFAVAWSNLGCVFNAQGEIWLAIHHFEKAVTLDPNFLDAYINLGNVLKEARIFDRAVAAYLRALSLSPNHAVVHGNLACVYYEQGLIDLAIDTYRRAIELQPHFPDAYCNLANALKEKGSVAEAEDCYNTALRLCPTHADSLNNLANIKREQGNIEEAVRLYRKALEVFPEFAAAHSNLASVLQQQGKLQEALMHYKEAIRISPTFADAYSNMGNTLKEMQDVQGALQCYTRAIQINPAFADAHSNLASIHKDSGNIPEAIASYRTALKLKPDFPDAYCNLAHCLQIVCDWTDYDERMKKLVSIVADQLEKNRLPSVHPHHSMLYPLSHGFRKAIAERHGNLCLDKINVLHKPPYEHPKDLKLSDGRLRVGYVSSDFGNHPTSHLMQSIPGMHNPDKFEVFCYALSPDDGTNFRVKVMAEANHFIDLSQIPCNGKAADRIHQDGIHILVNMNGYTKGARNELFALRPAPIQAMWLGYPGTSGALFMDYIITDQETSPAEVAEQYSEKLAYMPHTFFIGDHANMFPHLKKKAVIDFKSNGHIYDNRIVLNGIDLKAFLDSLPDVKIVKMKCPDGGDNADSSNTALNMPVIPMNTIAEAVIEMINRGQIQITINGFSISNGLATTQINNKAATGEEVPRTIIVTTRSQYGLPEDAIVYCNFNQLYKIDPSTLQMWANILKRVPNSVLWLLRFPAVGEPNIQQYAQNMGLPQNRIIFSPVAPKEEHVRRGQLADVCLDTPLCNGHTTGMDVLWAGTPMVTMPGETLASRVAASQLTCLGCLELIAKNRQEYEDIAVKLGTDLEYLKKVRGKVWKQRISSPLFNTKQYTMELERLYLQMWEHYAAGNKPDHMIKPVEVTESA
Sequence | enrichment fold change
AHHSAWAPKYLINI | 10.8
FPYLPQYQISPDYFS | 2.84 and 4.69
TDSYMPVYEIKSKAV | 5.66
QNYRPFYMINISSGS | 1.92 and 3.24
HLSAMHPELHYHGNH | 8.02
GADYLPKYQVVYNVR | 7.85
HSPHGTGWMQGHNAH | 9.7
THQHAHHVYSIDPSG | 4.02

Other studies, line by line
SMILES | target | effect on | mode | concentration | notes | quantity | value
Cc1ccc(-n2sc(=O)n(Cc3ccc(F)cc3)c2=O)cc1 | chymotrypsin | enzyme activity | inhibitor | 10 µM | with DTT | inhibition | 24.5%

Some of these lines once more (series 2):
Substitution | oxyanion analog dissociation constant
T120G | 1.98 µM
S467V | 2.99 µM
N470V | 2.05 µM
D398V | 2.45 µM
